Measurements pooled from the literature.
Numbered parts are unrelated; each lists some results of a single study.

Set 1
Target: Sal-like protein 4, full length isoform B (SALL4, Homo sapiens, UniProt Q9UJQ4-2, residues 1-616)
Technique: universal PBM
Molecule type: double-stranded DNA, one strand shown
Medium: in vitro
Tested at: not given
Setting: 8-mer, flanks averaged, mean of replicates
Direction: higher = stronger binding
Residues (chain): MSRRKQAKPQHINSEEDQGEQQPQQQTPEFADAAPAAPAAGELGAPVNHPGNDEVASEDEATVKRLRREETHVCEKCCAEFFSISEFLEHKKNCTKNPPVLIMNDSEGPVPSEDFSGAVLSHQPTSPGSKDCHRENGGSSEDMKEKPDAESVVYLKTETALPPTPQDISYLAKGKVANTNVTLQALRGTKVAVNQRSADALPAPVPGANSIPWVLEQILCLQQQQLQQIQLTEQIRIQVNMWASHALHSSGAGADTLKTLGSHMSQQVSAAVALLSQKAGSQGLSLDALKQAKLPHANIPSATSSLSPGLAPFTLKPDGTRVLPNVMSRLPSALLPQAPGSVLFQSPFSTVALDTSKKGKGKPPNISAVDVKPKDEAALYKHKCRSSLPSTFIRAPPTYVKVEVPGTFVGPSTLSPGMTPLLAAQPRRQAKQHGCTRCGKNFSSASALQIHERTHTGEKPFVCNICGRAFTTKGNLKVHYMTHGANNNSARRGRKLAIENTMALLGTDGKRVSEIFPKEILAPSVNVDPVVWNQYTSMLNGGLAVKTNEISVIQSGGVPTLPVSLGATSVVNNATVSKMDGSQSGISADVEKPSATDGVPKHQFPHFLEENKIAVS
Strand | E-score
GTTCTACA | 0.0449
AATGACGA | 0.219
ACTTCGTC | -0.0134
CGAACCGC | -0.333
TAAGATGA | 0.108
CACCCTCA | -0.0765
GTCTTGTA | 0.025
CCTGCTAA | -0.131
GGCGCTTA | -0.213
AGCTACGA | -0.0491
ACAGATTG | -0.00523
CACGCAGA | 0.0278
CCTGGGAA | -0.217
TAGGCTAA | -0.0699
CCTCACAG | -0.158
AATTTTTC | 0.285
GTGACCCA | -0.226
AGACAAGG | -0.162
CATCGTAG | -0.0799
AATTCTCA | 0.181
GTTGGCAA | 0.03
CGGGACTC | -0.328

Set 2
Target: RING finger protein unkempt homolog, zinc fingers 1-6, GST-SBP tag (UNK, Homo sapiens, UniProt Q9C0B0, residues 30-357)
Technique: RNA Bind-n-Seq
Molecule type: RNA
Medium: in vitro
Tested at: not given
Setting: RNA with constant flanks, human-mouse chimeric sites, ends assumed
Reference: input RNA pool
Direction: higher = stronger binding
All sequences stand within: GGGAGUUCUACAGUCCGACGAUC … CAACAGAGGAUUGAGCAUCA
Target sequence (chain): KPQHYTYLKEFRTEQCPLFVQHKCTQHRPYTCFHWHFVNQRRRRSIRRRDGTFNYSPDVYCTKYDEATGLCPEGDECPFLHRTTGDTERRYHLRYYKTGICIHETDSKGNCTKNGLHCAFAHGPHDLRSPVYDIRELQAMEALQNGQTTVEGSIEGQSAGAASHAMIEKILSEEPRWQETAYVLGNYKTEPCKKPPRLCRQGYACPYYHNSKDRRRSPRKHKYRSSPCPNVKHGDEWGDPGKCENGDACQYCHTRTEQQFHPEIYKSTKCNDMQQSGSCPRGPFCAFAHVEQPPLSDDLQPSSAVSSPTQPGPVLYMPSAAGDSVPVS
Strand | bound/input enrichment
UAUAAUAAUCAUGAAAUUCGUUCCGGGAAGCACAUUGGUGUCUGCAUCUCAGUUGCCAACAAUAGGCUUUUUGUGGGCUCGAUUCCUAAGAGUAAAACCAAGGAACAGAUUCUUGAGGAA | 1.17 ratio
CCUGCUCAGAUCACCAUGAAAGUAAUCCAAGGCCUAUACAGUGGGGUCACCACAGUGGAACUGGACACUUUGGCUGCUGAGACAGCCGCGACCUUGACCACGAAGCACCCUGACUAUGCC | 0.099 ratio
CGCUUGGAUGAGGCGGGUGUCACAGAUGAAGUGCUAGAUUCUGCCAUGCAAGCCUUCUUACUAGAAAUCAUUGUUAAACAUGGGGAGCCAGCCCCUUAUUUAUGUAACAAAGAUCCGUUU | 0.303 ratio
UCAGGAACUCAGACAAACAUGAAUGUAAAUGAAGUCAUUAGCAACAGAGCAAUUGAAAUGUUAGGAGGUGAACUUGGCAGCAAGAAGCCUGUGCACCCCAAUGAUCAUGUUAAUAAAAGC | 0.226 ratio
GUGCCCUCCUUCUCGCUGCGGAGCCCGAGCUGGGAACCAUUCCGGGACUGGUACCCUGCACACAGCCGCCUCUUCGAUCAAGCUUUCGGGGUGCCCCGGCUGCCGGAUGAGUGGUCGCAG | 0.0764 ratio
CCAAGUGAUUCAUCCCAAGGACAGGCCACCCCAUUUGGUGUUUGGAAUGAUGACAGUAUGGAAGGGCCUAGUCAAAAUGUUGAAGCUGAGUCAAUUCAGGAUGCCAUGAGUAUGGAAGAG | 0.215 ratio
AAAGAGAAACUAAAGCAACUAAUAGAGAAGAGGAUUGGCAAAGAGAAUUUCAUAGAGGAAACUAGGAUUAUUAGCAAACAUGAGUUAUAUUCCAGAGCGUCUCAGAAACCCCAGCCAAAC | 5.38 ratio
GAGUCGAGCAAACUUGAAACAAUUCGUUAUCUUGCAGCCUCAGUGUUUUUACUUGCCGCGAUAGCAUUGGGGUUUUAUAGGUUCUGGGGAAGUAGUAGACGAUGAUGCUGCCGCUGCUGC | 0.846 ratio
CUGGCCUGGCCCUCCCCUCUAGUGACCUUUCGUAUAGUCACUGCUUCUGCAUCAGAUACUUUCAGCUGCAACUCCCUACUGGGUGGGGCACCCAUUUGAGGCAGGGUGUUUUGGUACCCU | 0.448 ratio
AGAUUCCCCCUCCUGAGACCUCCUCCGAAGUUGGAGUCUCUUACAGAUGCCUCAUCCCCUGUUAGUAUUUUGGUCUGGACCACCCAGCCUUGGACAAUUCCCGCCAACCAGGCAAUUUGC | 0.889 ratio
GCUCUUGGGAAUGUAAUCAGCGCCUUGGGGGACAAGAGCAAGAGAGCCACCCAUGUCCCCUAUAGAGACUCUAAGCUGACAAGACUCUUGCAGGAUUCCCUUGGGGGUAACAGCCAAACC | 0.204 ratio

Set 3
Target: Histone acetyltransferase KAT6A, both winged helices, GST fusion (KAT6A, Homo sapiens, UniProt Q92794, residues 1-181)
Technique: protein binding microarray
Molecule type: double-stranded DNA, one strand shown
Medium: in vitro
Tested at: not given
Setting: 8-mer, flanks averaged, mean of 2 arrays, mostly near background
Reference: not given
Direction: higher = stronger binding
Construct (chain): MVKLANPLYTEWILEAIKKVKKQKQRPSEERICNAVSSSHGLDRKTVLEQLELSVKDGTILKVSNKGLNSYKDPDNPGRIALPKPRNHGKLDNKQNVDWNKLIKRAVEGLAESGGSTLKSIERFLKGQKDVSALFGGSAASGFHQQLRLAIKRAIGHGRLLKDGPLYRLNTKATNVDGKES
Strand | E-score
GAACGTCC | 0.0156
AAAAACAC | 0.00783
AGTCCCAG | -0.0474
GGCGCATA | 0.25
CTAGGCTA | -0.0645
ACTTTAAC | -0.223
ACTCTTGC | -0.172
CGATCCAG | -0.132
CGCCGCTC | 0.274
AGTAGTGG | -0.118
ATGGTTGA | -0.0996
CAAAGTAC | -0.166
ATCCAGTC | -0.118
CCGATACC | 0.139
AGGGTTCG | -0.129
CCTTCAAC | -0.231
AAAATGTT | 0.00219
ATCCAGGC | -0.0985
ACATAGGG | -0.241
ATATCTAG | -0.0971
TAAAACGA | -0.178
AAGAAAAA | -0.0953
ATGCAATG | -0.176
ACCTCAAA | 0.011
AGAGAGCC | -0.117

Set 4
Target: Prothrombin, mature alpha-thrombin (F2, Homo sapiens, UniProt P00734)
Technique: aptamer microarray, sandwich
Molecule type: DNA with 2'F-ANA
Medium: in vitro
Tested at: 200 nM
Setting: whole 15-mer aptamer, many near background
With: Cy3 exosite-II aptamer, 400 nM
Direction: higher = stronger binding
Strand: GGTTGGTGTGGTTGG
Modification | mean fluorescence intensity
2'F-ANA at 1 3 6 7 8 10 11 14 15 | 63.8 a.u.
2'F-ANA at 1 6 9 11 | 123 a.u.
2'F-ANA at 2 3 4 5 6 8 10 15 | 55.4 a.u.
2'F-ANA at 2 5 8 10 | 43.4 a.u.
2'F-ANA at 3 6 7 9 10 14 | 390 a.u.
2'F-ANA at 5 8 9 10 11 15 | 49.8 a.u.
2'F-ANA at 2 3 5 6 7 9 10 12 14 | 48.4 a.u.
2'F-ANA at 2 6 7 8 11 14 | 138 a.u.
2'F-ANA at 2 3 4 6 7 8 9 10 11 14 | 154 a.u.
2'F-ANA at 1 2 3 7 8 11 | 259 a.u.
2'F-ANA at 4 5 6 9 14 | 51 a.u.
2'F-ANA at 1 3 5 7 12 13 14 | 45.6 a.u.
2'F-ANA at 3 4 6 7 8 9 10 12 13 14 | 220 a.u.
2'F-ANA at 1 4 5 8 9 13 14 15 | 49.5 a.u.
2'F-ANA at 2 5 8 12 13 15 | 124 a.u.
2'F-ANA at 1 2 4 6 7 9 10 12 13 15 | 57.2 a.u.
2'F-ANA at 2 3 4 8 10 12 13 15 | 269 a.u.
2'F-ANA at 3 4 8 9 10 11 12 13 14 15 | 185 a.u.
2'F-ANA at 3 5 6 7 8 9 13 14 | 64.6 a.u.
2'F-ANA at 2 8 14 15 | 162 a.u.
2'F-ANA at 3 5 6 7 8 9 10 11 12 14 15 | 56.3 a.u.
2'F-ANA at 1 2 5 7 8 9 14 15 | 46 a.u.
